# Measured values gathered from unrelated publications.
# A part holds a random share of what one study measured.

# Sample 1
# Target: Histone acetyltransferase KAT6A, winged helix 2, GST fusion (KAT6A, Homo sapiens, UniProt Q92794, residues 85-181)
# Method: protein binding microarray
# Molecule type: double-stranded DNA, one strand shown
# Matrix: in vitro
# Tested at: not given
# Setting: 8-mer, flanks averaged, mean of 2 arrays, mostly near background
# Relative to: not given
# Direction: higher = stronger binding
# Residues (chain): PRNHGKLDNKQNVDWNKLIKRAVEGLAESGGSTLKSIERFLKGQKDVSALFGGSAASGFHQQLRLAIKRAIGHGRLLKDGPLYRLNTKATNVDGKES
Sequence,E-score
CAAAGTGA,-0.017
TCCAGAAA,-0.0951
AGGGACCA,-0.0643
CCGTCTAG,0.0175
CTTCATAA,0.071
GCACACCC,-0.0836
CAATACTG,-0.0628
AGTAGGTC,-0.113
ATCGGCGA,0.1
CGTCGACA,-0.0725
AACTCGTC,-0.0115
TATAAAAA,0.154
GACTACCA,-0.174
ATAGTCGC,-0.0145
CGCGGTAC,0.0961
GTACCCCA,-0.117
GGGACTAC,-0.0492
CGGAAACA,-0.101
GGCGATAA,-0.0366
ACATCCTG,0.0244
CAGCTGAC,0.116
CCAATCAG,-0.0709
AACGGAGT,0.235
CTAATCCA,0.00583
CCAGACAA,0.0603

# Sample 2
# Target: PABPC1L2, full length, GST fusion (mouse, UniProt A0ABA7IW68)
# Method: RNAcompete
# Molecule type: RNA
# Matrix: in vitro
# Tested at: 20 nM
# Setting: 7-mer, probes averaged, single round
# Relative to: mean of 7-mers
# Direction: higher = stronger binding
# Target sequence (chain): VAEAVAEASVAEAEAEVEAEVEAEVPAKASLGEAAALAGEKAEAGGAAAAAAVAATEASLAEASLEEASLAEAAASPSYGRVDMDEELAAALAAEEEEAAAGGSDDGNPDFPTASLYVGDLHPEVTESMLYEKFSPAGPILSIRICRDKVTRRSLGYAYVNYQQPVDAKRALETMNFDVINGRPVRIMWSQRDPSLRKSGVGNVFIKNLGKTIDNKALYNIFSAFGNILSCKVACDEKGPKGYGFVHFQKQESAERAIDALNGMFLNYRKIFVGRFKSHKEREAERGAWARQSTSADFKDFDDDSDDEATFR
Sequence,7-mer Z-score
UGAUCCG,-0.277
UGUCACA,-0.0772
AGGACUC,-0.128
AUUUUAU,0.0225
GACAUGG,0.0768
AAGGAGU,0.195
CGGGUCC,0.000733
UCUAGUA,-0.213
GCUGGGG,0.106
CGAAGGA,0.148
CUUGGCG,-0.0681
GACAACG,-0.012
CUGGGGA,0.271
CGAAUAC,-0.0047
CUGUGAU,-0.302
UGUUUAU,-0.353
AAUAGCA,0.191
UCGGCCU,-0.429
GCGCCUC,-0.233
UUAUUGU,-0.231
CGAGAGG,-0.0246
AUGACGG,0.128
UCUGCUU,-0.34
AGAUGAU,-0.184
GAUUUGC,-0.403

# Sample 3
# Target: Centromere-binding protein 1, full length, His-tagged (CBF1, Saccharomyces cerevisiae, UniProt P17106, residues 1-351)
# UniProt P17106, sequence (whole entry, looked up): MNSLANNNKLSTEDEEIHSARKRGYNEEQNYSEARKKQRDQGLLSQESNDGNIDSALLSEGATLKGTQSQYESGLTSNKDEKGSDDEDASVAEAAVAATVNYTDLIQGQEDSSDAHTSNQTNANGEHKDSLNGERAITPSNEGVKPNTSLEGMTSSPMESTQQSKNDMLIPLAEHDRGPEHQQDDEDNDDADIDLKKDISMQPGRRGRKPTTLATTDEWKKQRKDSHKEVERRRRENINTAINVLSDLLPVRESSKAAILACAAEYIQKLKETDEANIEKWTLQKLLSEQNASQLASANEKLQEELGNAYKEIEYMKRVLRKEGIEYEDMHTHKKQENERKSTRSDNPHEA
# Method: competition protein-binding microarray
# Molecule type: double-stranded DNA, one strand shown
# Matrix: in vitro
# Tested at: 2 µM
# Setting: whole 60-bp probe, lowest competitor level
# With: Pho4 competitor, 0.05 µM
# Direction: higher = stronger binding
# Shared flanks, not repeated: … GTCTTGATTCGCTTGACGCTGCTG
Sequence,fluorescence intensity
CGTCCTAGTGATTGTTACGTGGGTGCCATGAGGAAG,91.1 a.u.
CTAACGAAGGTTTGATGTGTGGGTGACAAGCCAAGT,75.4 a.u.
GTCAGAAAGCCGGGTAAGGTGTGCCAGCGCGAGTAA,73.4 a.u.
CGCTAGTACTTTATTCTCGTGGTGAGCATTTGAAGT,109 a.u.
TCGCCTTGTACTTAGCACGTTCTGAGGCATCGCCTA,106 a.u.
CGTCCTAGTGATTTTCACGTGAATTCCATGAGGAAG,980 a.u.
CTGTTTACCAATACTCACGTGGCCGCTCTTCTTTAG,1460 a.u.
CTTCTGTAAATTTGGCACGTGTTTTGACGCGCCCCG,1860 a.u.
CAAAAATTAGAAATCAACGTGACGGTCTAGGGCTAC,310 a.u.
AACCAGTTGTTAAATCATGTGGTTATGGTCTTGTCG,399 a.u.
TGCGCAACAACTTGGTGTGTGGGTGTATGTCTAGAA,59.7 a.u.
AAATTACTAAGTTGAACTGTGGGTGACGCCGTATGA,76.5 a.u.
TGCGCAACAACTTAACACGTGTTTTTATGTCTAGAA,2950 a.u.
GACATCTTCAGTACCCATGTGTAATTTGGCGAATTT,108 a.u.
CTAACGAAGGTTTGGTCCGTGGGTGACAAGCCAAGT,72.1 a.u.
CGGGGTTAAGTTTTTCACGTGAAGTGCTTGCAGCAG,658 a.u.
CTAACGAAGGTTTGGCGTGTGGGTGACAAGCCAAGT,62.8 a.u.
CATACCCAACCTTTTCACGTGTATTAAGATATTTGT,993 a.u.
TGCTACGCGTAGTGCAGCGTGACGGCGGGCTAAAAA,101 a.u.

# Sample 4
# Target: RING finger protein unkempt homolog, zinc fingers 1-6, GST-SBP tag (UNK, Homo sapiens, UniProt Q9C0B0, residues 30-357)
# UniProt Q9C0B0, sequence (30-357, looked up): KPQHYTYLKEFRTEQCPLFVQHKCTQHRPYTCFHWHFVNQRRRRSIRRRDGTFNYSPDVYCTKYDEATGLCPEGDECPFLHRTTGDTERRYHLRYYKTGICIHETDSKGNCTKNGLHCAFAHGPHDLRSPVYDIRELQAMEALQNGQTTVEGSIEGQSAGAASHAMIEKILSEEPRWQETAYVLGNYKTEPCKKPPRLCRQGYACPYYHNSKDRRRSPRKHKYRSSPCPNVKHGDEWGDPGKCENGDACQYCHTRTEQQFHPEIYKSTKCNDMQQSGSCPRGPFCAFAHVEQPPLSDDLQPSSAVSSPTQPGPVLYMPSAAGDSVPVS
# Method: RNA Bind-n-Seq
# Molecule type: RNA
# Matrix: in vitro
# Tested at: not given
# Setting: RNA with constant flanks, human and mouse sites, ends assumed
# Relative to: input RNA pool
# Direction: higher = stronger binding
# Shared flanks, not repeated: GGGAGUUCUACAGUCCGACGAUC … CAACAGAGGAUUGAGCAUCA
Sequence,bound/input enrichment [ratio]
GACGUCAUGGAAGACAAACUCAAGGGCGAGAUGAUGGAUCUCCAGCAUGGCAGCCUCUUCCUUAAAACACCAAAAAUUGUCUCCAGCAAAGACUACUGUGUAACUGCGAACUCCAAGCUG,0.167
CGCACCACCAGAGGAAAGCGGAAGAGAGUUGAUGUGGAGGAGUCGGAGGCGAGCAGCAGUGUUAGCAUUUCCCACUCUGCCUCAGCCACGGGGAACGUGUGCAUUGAAGAGAUAGAUGUU,0.291
GGGCUAACCUUUAUUAAACAGAUCGCAUAUUAUGAUCUUGCUGCAGCCACAGUGCAGCUCCACAUUAACUCUACAGACCAAACCAUUUGUAUCUGGCAUCACUUACUAACACACGACAUG,0.833
GCCUGGAGCAAGGUGGAGGGUGCAGAGGGGCUGGGGUAGGGCAUGUAGGAGGGAGGUGGGUGGGUCAGGUGAGUGGAAGGGGUGUUGUAUAUUGUGUUGAUGACGUACGUUAUUUCCAUG,0.732
AUUUUACAAGUAAAAUCAACUAAAGGGAAAGUUGAGGUAUUCUGCAGCCAGAGACUUAGAAACGCUGUGUGGACUUGUCAUGAGUGGUCAAGGUGAUGGGCUAUAGUGUCAGUUAAGAGU,1.27
GUGGAGUGCUGCCAAGGGGACUGGUGUAACAGGAACAUCACGGCCCAGCUGCCCACUAAAGGAAAAUCCUUCCCUGGAACACAGAAUUUCCACUUGGAGGUUGGCCUCAUUAUUCUCUCU,0.18
CGGAACUGCCUAGUGGGCGAGAACCAUGUGGUGAAAGUGGCCGACUUUGGUUUAAGUAGACUGAUGACUGGAGAUACCUACACUGCUCAUGCUGGAGCCAAAUUUCCUAUUAAAUGGACA,0.119
CGAAACCCUUACUACGGAGGAGAGAGUGCAUCUAUAACACCAUUGGAAGAUUUAUACAAAAGAUUUAAAAUACCAGGAUCACCACCCGAGUCAAUGGGGAGAGGAAGAGACUGGAAUGUU,0.719

# For quick reference, copied from above (sample 2):
Sequence,7-mer Z-score
AAGGAGU,0.195
GAUUUGC,-0.403
CUGGGGA,0.271
GACAACG,-0.012
CGAGAGG,-0.0246
AUUUUAU,0.0225
UGUCACA,-0.0772
GCGCCUC,-0.233
